{"data": "Results gathered from unrelated publications", "HTR1E": "5-hydroxytryptamine receptor 1E (HTR1E, Homo sapiens, UniProt P28566)", "uncharacterized protein": "uncharacterized protein (Canis lupus familiaris, UniProt A0A8I3P1R6)", "Peroxisome proliferator-activated receptor alpha": "Peroxisome proliferator-activated receptor alpha (Rattus norvegicus, UniProt P37230)", "note": "Protocols differ between the studies behind these lines. ± gives the spread as reported.", "chain of UniProt P37230 (whole entry, looked up)": "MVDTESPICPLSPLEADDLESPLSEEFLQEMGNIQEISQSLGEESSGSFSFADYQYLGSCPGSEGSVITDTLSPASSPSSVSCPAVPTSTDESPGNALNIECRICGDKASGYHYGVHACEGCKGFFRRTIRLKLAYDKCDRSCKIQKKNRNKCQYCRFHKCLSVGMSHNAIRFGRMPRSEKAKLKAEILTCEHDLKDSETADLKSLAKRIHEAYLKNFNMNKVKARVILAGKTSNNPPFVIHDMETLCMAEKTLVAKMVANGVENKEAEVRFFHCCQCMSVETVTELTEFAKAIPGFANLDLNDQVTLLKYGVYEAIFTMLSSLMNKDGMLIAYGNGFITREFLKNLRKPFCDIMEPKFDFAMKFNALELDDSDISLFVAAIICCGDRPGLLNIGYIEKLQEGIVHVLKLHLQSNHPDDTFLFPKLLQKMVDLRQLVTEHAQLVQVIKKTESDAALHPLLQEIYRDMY", "chain of UniProt P28566 (whole entry, looked up)": "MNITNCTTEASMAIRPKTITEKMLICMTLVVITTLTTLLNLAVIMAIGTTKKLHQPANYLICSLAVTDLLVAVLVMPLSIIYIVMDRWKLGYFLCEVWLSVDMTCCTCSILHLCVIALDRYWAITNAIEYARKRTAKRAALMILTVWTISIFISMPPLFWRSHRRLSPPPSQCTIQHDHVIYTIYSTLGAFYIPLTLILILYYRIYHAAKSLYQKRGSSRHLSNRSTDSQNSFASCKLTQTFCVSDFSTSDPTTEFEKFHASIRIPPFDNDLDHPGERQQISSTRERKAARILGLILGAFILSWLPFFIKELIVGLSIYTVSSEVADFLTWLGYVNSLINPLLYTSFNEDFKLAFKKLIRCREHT", "chain of UniProt O97666 (whole entry, looked up)": "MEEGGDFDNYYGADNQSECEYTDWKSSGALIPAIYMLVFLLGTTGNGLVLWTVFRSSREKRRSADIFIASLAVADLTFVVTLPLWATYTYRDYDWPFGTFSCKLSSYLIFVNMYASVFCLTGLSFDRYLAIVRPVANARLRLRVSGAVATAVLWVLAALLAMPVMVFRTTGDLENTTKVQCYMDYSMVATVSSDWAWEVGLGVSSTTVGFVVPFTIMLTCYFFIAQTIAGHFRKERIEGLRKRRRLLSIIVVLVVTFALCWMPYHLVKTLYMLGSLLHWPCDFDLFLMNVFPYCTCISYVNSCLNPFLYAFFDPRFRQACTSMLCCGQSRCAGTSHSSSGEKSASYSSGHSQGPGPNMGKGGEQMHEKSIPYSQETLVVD", "chain of UniProt P14618 (whole entry, looked up)": "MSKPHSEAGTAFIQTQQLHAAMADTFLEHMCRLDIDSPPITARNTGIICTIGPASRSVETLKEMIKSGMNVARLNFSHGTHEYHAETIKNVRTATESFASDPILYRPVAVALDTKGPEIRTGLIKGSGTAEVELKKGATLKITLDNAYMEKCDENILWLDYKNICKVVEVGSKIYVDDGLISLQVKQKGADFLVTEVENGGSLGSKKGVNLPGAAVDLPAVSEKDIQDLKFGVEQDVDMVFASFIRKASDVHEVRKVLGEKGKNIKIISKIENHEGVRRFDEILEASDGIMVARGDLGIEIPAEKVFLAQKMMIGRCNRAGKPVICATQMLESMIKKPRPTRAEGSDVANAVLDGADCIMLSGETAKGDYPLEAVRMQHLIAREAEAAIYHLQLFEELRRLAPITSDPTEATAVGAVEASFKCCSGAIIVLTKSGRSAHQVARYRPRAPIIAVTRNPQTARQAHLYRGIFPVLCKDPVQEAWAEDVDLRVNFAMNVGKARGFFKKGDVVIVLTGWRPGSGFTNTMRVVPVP", "chain of UniProt Q15077 (whole entry, looked up)": "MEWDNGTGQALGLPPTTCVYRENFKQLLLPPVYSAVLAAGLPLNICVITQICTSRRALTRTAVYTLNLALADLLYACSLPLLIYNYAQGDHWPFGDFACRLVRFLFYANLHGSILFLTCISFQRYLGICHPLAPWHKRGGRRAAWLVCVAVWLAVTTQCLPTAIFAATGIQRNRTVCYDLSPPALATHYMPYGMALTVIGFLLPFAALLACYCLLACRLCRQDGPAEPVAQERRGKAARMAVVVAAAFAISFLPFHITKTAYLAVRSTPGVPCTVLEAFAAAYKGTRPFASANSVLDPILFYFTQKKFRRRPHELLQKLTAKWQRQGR", "chain of UniProt P03951 (whole entry, looked up)": "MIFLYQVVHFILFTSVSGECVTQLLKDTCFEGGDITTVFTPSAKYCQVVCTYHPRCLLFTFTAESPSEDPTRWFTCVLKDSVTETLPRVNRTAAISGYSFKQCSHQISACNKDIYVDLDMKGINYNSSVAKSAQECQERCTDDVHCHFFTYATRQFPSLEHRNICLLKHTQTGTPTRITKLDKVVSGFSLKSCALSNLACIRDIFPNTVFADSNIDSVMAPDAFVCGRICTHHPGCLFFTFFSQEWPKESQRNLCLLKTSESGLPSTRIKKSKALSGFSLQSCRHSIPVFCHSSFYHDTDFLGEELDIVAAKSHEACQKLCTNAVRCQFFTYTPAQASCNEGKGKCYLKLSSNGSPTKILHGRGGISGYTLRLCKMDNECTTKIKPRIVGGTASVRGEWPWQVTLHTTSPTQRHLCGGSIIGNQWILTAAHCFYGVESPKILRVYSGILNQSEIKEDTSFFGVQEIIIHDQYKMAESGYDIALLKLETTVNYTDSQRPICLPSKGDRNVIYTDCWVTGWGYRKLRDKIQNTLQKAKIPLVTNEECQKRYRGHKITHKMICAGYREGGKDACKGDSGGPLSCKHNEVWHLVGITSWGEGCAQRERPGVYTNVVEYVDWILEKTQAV", "chain of UniProt Q15391 (whole entry, unmodified, looked up)": "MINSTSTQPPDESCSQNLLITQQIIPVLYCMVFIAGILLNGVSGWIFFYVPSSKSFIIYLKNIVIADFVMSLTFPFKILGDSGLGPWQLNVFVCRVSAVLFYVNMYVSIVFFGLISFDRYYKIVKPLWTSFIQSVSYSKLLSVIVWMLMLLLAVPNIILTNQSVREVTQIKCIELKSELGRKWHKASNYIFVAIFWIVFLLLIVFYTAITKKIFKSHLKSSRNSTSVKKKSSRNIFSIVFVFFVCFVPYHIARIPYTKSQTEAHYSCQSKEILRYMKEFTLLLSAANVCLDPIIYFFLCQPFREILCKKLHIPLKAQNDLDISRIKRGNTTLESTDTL", "chain of UniProt O43781 (whole entry, looked up)": "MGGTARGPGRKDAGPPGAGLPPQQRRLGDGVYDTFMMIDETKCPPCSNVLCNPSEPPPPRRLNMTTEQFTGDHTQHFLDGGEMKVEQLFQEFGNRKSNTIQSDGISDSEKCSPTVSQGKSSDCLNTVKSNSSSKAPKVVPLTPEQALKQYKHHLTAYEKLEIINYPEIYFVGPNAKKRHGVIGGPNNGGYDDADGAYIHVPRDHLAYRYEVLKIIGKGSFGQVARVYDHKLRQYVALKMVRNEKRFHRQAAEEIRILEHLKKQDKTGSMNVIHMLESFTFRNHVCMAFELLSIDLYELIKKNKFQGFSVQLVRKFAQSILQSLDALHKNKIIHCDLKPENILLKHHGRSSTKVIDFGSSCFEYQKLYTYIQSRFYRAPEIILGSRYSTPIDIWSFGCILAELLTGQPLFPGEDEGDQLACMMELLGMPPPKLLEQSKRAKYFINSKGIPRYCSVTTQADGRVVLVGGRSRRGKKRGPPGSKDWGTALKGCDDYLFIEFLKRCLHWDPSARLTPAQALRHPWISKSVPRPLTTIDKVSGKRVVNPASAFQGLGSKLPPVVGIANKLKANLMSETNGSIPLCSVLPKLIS", "chain of UniProt Q13258 (whole entry, unmodified, looked up)": "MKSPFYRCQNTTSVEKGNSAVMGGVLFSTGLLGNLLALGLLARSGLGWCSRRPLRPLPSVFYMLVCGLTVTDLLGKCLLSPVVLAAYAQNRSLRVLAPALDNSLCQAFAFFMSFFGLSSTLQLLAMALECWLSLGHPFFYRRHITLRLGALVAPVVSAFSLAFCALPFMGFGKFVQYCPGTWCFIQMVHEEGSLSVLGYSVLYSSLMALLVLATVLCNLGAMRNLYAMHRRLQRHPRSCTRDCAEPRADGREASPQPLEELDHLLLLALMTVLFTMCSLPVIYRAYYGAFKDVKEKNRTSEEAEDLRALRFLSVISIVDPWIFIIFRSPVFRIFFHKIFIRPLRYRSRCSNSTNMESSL", "chain of UniProt Q8N884 (whole entry, looked up)": "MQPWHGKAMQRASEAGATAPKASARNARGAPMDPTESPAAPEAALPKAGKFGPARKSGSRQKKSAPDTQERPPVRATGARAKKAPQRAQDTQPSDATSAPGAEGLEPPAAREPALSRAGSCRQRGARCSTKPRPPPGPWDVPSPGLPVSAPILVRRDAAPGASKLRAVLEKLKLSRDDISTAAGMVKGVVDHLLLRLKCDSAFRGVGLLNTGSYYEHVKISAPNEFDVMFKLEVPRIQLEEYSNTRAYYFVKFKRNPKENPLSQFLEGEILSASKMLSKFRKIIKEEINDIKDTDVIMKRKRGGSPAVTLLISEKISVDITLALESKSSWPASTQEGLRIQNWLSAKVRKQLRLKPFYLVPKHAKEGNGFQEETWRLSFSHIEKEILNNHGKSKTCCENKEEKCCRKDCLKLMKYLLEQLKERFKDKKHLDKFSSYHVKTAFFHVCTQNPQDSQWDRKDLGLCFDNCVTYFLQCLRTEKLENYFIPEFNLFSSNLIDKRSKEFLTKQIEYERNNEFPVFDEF", "chain of UniProt P34995 (whole entry, unmodified, looked up)": "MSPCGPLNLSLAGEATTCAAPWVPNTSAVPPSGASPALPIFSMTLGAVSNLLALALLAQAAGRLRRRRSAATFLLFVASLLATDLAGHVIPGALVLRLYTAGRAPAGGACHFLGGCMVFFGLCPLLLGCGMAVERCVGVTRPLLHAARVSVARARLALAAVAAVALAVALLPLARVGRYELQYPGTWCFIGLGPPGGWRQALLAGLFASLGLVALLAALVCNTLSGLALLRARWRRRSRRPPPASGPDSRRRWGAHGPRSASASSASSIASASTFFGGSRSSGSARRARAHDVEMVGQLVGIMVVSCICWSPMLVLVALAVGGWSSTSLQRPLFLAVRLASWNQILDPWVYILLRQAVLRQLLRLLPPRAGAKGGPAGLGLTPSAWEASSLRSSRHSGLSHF"}
{"SMILES": "CN(C)CCC=C1c2ccccc2C=Cc2ccccc21", "target or system": "HTR1E", "assay": "agonist", "quantity": "EC50", "result": "0.425 µM"}
{"SMILES": "C=CCc1ccc(OC)c(OC)c1", "target or system": "uncharacterized protein", "assay": "cAMP level, agonist, cAMP luminescence", "test system": "HEK293 cells", "quantity": "EC50", "result": "70.3 ± 29.3 µM"}
{"SMILES": "O=c1ccn([C@@H]2O[C@H](COP(=O)(O)OP(=O)(O)OP(=O)(O)O)[C@@H](O)[C@H]2O)c(=O)[nH]1", "target or system": "P2Y purinoceptor 6 (P2RY6, Homo sapiens, UniProt Q15077)", "assay": "agonist, cell-based", "quantity": "EC50", "result": "0.0942 µM"}
{"SMILES": "CCc1nccnc1C", "target or system": "uncharacterized protein", "assay": "cAMP level, agonist, cAMP luminescence", "test system": "HEK293 cells", "quantity": "EC50", "result": "338 ± 1.99 µM"}
{"SMILES": "CCO[C@H](COc1ccc(C(F)(F)F)cc1)CSc1ccc(OCC(=O)O)c(C)c1", "target or system": "Peroxisome proliferator-activated receptor alpha", "assay": "receptor activation, agonist, luciferase reporter", "conditions": "serum-free, species rat", "quantity": "EC50", "result": "22 µM"}
{"SMILES": "Nc1ncnc2c1ncn2[C@@H]1O[C@H](COP(=O)(O)OP(=O)(O)O[C@H]2O[C@H](CO)[C@@H](O)[C@H](O)[C@H]2O)[C@@H](O)[C@H]1O", "target or system": "P2Y purinoceptor 14 (P2RY14, Homo sapiens, UniProt Q15391, F191C)", "assay": "calcium mobilisation, agonist", "test system": "cells with Gαqi5", "conditions": "receptor mutant F191C", "quantity": "EC50", "result": "0.42 ± 0.022 µM"}
{"SMILES": "CN1CCN2c3ncccc3Cc3ccccc3C2C1 (stereo not shown)", "target or system": "HTR1E", "assay": "agonist", "quantity": "EC50", "result": "0.614 µM"}
{"SMILES": "c1cc(CN2CCOCC2)cc(Nc2nccc(NCCc3cnc[nH]3)n2)c1", "target or system": "16-kinase panel", "assay": "radiometric", "conditions": "1 µM, ATP at Km", "scale": "below 10% of control", "quantity": "number of kinases inhibited", "result": 1}
{"SMILES": "COc1cc(O)c2c(c1)C(=O)c1cc(C)cc(O)c1C2=O", "target or system": "HK-2 co-cultured with HepaRG", "assay": "MTT", "conditions": "16.67 µM, 48 h", "scale": "reference: untreated control", "quantity": "viability", "result": "105 ± 9.11%"}
{"SMILES": "Cn1cc2c(C(=O)O)ccc(NS(=O)(=O)c3ccc(OCC4CCC4)c(Cl)c3)c2n1", "target or system": "DRD1 (Homo sapiens, UniProt P21728)", "assay": "agonist", "quantity": "EC50", "result": "> 10 µM"}
{"SMILES": "CSc1ccc(C(=O)/C=C/c2cc(C)c(OC(C)(C)C(=O)O)c(C)c2)cc1", "target or system": "Peroxisome proliferator-activated receptor alpha", "assay": "receptor activation, agonist, luciferase reporter", "conditions": "serum-free, species rat", "quantity": "EC50", "result": "0.7 µM"}
{"SMILES": "C[C@@H](NC(=O)N1C(=O)[C@H](Cc2ccnc(N)c2)[C@H]1C(=O)O)C1CCCCC1", "target or system": "F11 (Homo sapiens, UniProt P03951)", "assay": "FXI coagulant activity, inhibitor, Emax PK/PD model", "test system": "human, plasma", "scale": "reference: baseline", "quantity": "EC50", "result": "3.47 µM"}
{"SMILES": "COc1nccnc1C(C)C", "target or system": "uncharacterized protein", "assay": "cAMP level, agonist, cAMP luminescence", "test system": "HEK293 cells", "quantity": "EC50", "result": "293 ± 34.6 µM"}
{"SMILES": "Nc1nc2c(ncn2[C@@H]2O[C@@H]3COP(=O)(O)O[C@H]3[C@H]2O)c(=O)[nH]1", "target or system": "Cone cGMP-gated channel (Morone saxatilis, UniProt Q3I0N1+Q3I0N2)", "assay": "channel current, agonist, suction electrode", "test system": "Morone saxatilis cone outer segments", "conditions": "with: 5 µM Ca2+", "quantity": "EC50", "result": "295 µM"}
{"SMILES": "O=C(COP(=O)(O)O)[C@@H](O)[C@H](O)[C@H](O)COP(=O)(O)O", "target or system": "Pyruvate kinase PKM (PKM, Homo sapiens, UniProt P14618)", "assay": "pyruvate kinase activity, activator", "test system": "A549 cell lysate", "conditions": "without AIM", "quantity": "EC50", "result": "0.0332 ± 0.0112 µM"}
{"SMILES": "CCc1ncc(C)nc1CC", "target or system": "uncharacterized protein", "assay": "cAMP level, agonist, cAMP luminescence", "test system": "HEK293 cells", "quantity": "EC50", "result": "61.7 ± 12.3 µM"}
{"SMILES": "Cc1nn(CC(F)(F)F)cc1Nc1nccc(NCc2ccc(S(N)(=O)=O)cc2)n1", "target or system": "16-kinase panel", "assay": "radiometric", "conditions": "1 µM, ATP at Km", "scale": "below 10% of control", "quantity": "number of kinases inhibited", "result": 0}
{"SMILES": "COc1c(O)c(C)cc2c1C(=O)c1c(ccc(O)c1O)C2=O", "target or system": "HK-2 co-cultured with HepaRG", "assay": "MTT", "conditions": "66.67 µM, 24 h", "scale": "reference: untreated control", "quantity": "viability", "result": "84 ± 112%"}
{"SMILES": "CN1CCN(c2ccc(Nc3ncc4cc(C#N)c(=O)n(C5CCCC5)c4n3)cc2)CC1", "target or system": "DYRK3 (Homo sapiens, UniProt O43781)", "quantity": "IC50", "result": "6.8 µM"}
{"SMILES": "Cc1nccnc1C", "target or system": "uncharacterized protein", "assay": "cAMP level, agonist, cAMP luminescence", "test system": "HEK293 cells", "quantity": "EC50", "result": "> 1500 µM"}
{"SMILES": "CCOCc1nc(O)c(-c2nnc(Cc3ccc(Cl)cn3)o2)c(O)c1-c1c(OC)cccc1OC", "target or system": "Apelin receptor (APLNR, Macaca mulatta, UniProt O97666)", "assay": "cAMP inhibition, agonist", "test system": "HEK293", "conditions": "monkey receptor", "quantity": "EC50", "result": "8e-05 ± 4e-05 µM"}
{"SMILES": "CCc1nccnc1OC", "target or system": "uncharacterized protein", "assay": "cAMP level, agonist, cAMP luminescence", "test system": "HEK293 cells", "quantity": "EC50", "result": "214 ± 9.5 µM"}
{"SMILES": "CCCCC[C@H](O)/C=C/[C@H]1C(=O)C[C@H](O)[C@@H]1C/C=C\\CCCC(=O)O", "target or system": "PTGDR (Homo sapiens, UniProt Q13258, D319N)", "assay": "agonist", "quantity": "EC50", "result": "0.219 µM"}
{"SMILES": "CCCCC[C@H](O)/C=C/[C@H]1[C@H](O)CC(=O)[C@@H]1C/C=C\\CCCC(=O)O", "target or system": "PTGER1 (Homo sapiens, UniProt P34995, F334L/G92S/P39S)", "assay": "IP1 accumulation, agonist", "test system": "AD293", "quantity": "EC50", "result": "0.111 µM"}
{"SMILES": "Cc1nn(-c2nc3c(F)cc(F)cc3s2)c(O)c1C(c1ccccc1C(=O)O)c1c(C)nn(-c2nc3c(F)cc(F)cc3s2)c1O", "target or system": "Cyclic GMP-AMP synthase, catalytic domain; with DNA (CGAS, Homo sapiens, UniProt Q8N884)", "assay": "cGAS-DNA condensate disruption", "conditions": "concentration not given, with: Cy3-labelled DNA", "quantity": "EC50", "result": "1.2 ± 0.2 µM"}
